Assay results gathered from unrelated publications.
Each numbered part is a random draw from the data of one study; scales do not carry over between parts. Positions count from the first letter of the parent shown.

Series 1
Target: RNA binding protein fox-1 homolog 2, RRM domain, GST-SBP tag (RBFOX2, Homo sapiens, UniProt O43251-10, residues 100-194)
Technique: RNA Bind-n-Seq
Form: RNA
Sample: in vitro
Tested at: 365 nM
Setting: natural RNA segment, single round, ends assumed
Baseline: no-protein control
Direction: higher = stronger binding
Shared flanks, not repeated: GGGAGUUCUACAGUCCGACGAUC … UGGAAUUCUCGGGUGCCAA
Construct (chain): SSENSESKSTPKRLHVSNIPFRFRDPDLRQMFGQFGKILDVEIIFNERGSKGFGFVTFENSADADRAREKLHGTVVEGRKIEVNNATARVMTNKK
| Sequence | RBNS enrichment (R) |
| --- | --- |
| GUGCUUUCUAACAGCUUCUGGGUGCAGAUUUUCUUCGGCAUCCUUUUGCACUCAGCUUAUUACAGGUAGGUAGUGCUUAAGAAAAGUCAUGGAGGACUAAAGCCUAAGUC | 0.329 |
| CGUGUUGUACAUAGAAUGAUGAAGGGUUCCACUGUUGUUGUAUGUCUUAAAUUUAUUUAAAACUUUUUUUAAUCCAGAUGUAGACUAUAUUCUAAAAAAUAAAAAAGCAA | 0.734 |
| GCGACACCAGCUGCACUGGUCUUUUUCUCUCUAGACUCUUCACCGCCUGAGGACACUCCUGUCGUUGCUGCAGAAGCUGCUGCCCCUGUUCCAUCUGCUGUACUAACCAG | 0.28 |
| UGUCCAGACCAUUGUCUUCCAACCCCAGCUGGCCUCUAGAACACCCACUGGCCAGUCCUAGAGCUCCUGUCCCUACCCACUCUUUGCUACAAUAAAUGCUGAAUGAAUCC | 0.776 |
| GCUGCGCCUGGUUUCGCCGGACAGAGUUGGUGUUUGGAGCCCAGCCGCCCUCGGGCGCACGGCCUGCCUGUCGCAUGUUUGUGUCUGCCUCGUCCCCUCCCCUGGUGCCU | 9.32 |
| UCCUUCUUCACUCAAAGGCUGCUUUGCUCUGAGUGGGGAAAGAGUGGGUGUUUUGUAGAAGCAUUGCCUUUCAUUGUUCUUUCUAUAUCUGUCCACAAUGCCUACUGUCU | 0.555 |
| UGAAGGCCCUCCACAGUGGACAGAGCAACUUCCUUUCCAGCCUCUGCUGGUAGCAUGCUGCAGCUUCUGUGUUAAAGGUCCUCUGGAGCUCGUGUAAGACAGGAAGAACA | 1.47 |
| ACCGUUCUUAUCACGAGAAAGCACUUUGUUUCCAGGGUGACGAGUCCCGCGGAGCAUGCACACCUUGUUUCCCUGUGACAUUCAUGUUCUCAUUUACAACUCUGAUUUUC | 5.13 |

Series 2
Target: Histone acetyltransferase KAT6A, both winged helices, GST fusion (KAT6A, Homo sapiens, UniProt Q92794, residues 1-181)
Technique: protein binding microarray
Form: double-stranded DNA, one strand shown
Sample: in vitro
Tested at: not given
Setting: 8-mer, flanks averaged, mean of 2 arrays, mostly near background
Baseline: not given
Direction: higher = stronger binding
Target sequence (chain): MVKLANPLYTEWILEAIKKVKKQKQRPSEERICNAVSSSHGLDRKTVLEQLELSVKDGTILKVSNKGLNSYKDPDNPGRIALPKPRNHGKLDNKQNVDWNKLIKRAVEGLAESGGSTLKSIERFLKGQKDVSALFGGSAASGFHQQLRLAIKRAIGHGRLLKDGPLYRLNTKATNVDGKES
| Sequence | E-score |
| --- | --- |
| CACGAAAC | 0.0829 |
| GGAACTAC | 0.0934 |
| GCCAGCCA | -0.0996 |
| CCGGTAGA | 0.241 |
| AGTATTGA | -0.0221 |
| CCAAATCG | 0.0604 |
| CACACTTC | -0.138 |
| CCCTTACC | 0.0672 |
| GATCCGCA | 0.115 |
| CCTGACGA | -0.126 |
| AAAAGCTG | -0.0469 |
| CCAGCGAC | -0.0688 |
| AGCGTGTC | 0.0716 |
| CAGCGGGA | 0.236 |
| AAACCTAG | -0.17 |
| CTCTCGAC | -0.0787 |
| GGGATGTA | 0.0708 |
| ATTTTTTG | -0.0912 |
| CTGTTCGA | -0.148 |

Series 3
Target: CEBPD, bZIP domain (human)
Technique: DHFR protein complementation
Sample: yeast
Setting: single substitutions, most at no-binding floor
Baseline: wild-type JUN-FOS pair
Direction: higher = stronger binding
Starting sequence: JUN, bZIP domain (human); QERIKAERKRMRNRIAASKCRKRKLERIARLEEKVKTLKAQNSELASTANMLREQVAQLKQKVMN; partner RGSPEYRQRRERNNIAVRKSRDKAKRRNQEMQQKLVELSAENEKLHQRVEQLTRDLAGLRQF
| Variant | binding fitness |
| --- | --- |
| T48M | -1.38 natural log |
| A29F | -1.17 natural log |
| L31E | -1.43 natural log |
| S47I | -1.39 natural log |
| A46W | -1.39 natural log |
| I28G | -1.3 natural log |
| K39L | -1.41 natural log |
| T48K | -1.24 natural log |
| Q55G | -1.48 natural log |
| L45I | -1.47 natural log |
| E44C | -1.53 natural log |
| L45D | -1.5 natural log |
| L52A | -1.42 natural log |
| Q41H | -1.28 natural log |
| V35P | -1.45 natural log |
| E33S | -1.45 natural log |

Series 4
Target: CCNE2, cyclin fold, Cln2 fusion (human)
Technique: yeast growth competition, sequencing
Sample: yeast
Setting: weak parent motif
Baseline: not given
Direction: higher = stronger binding
Starting sequence: MICAL3 docking peptide (human); LQLRRQLSFSEDS
| Variant | normalised enrichment score |
| --- | --- |
| LQLRRQTSFSEDS [L7T] | 0.144 |
| LQLRRQLSFSEAS [D12A] | 0.345 |
| LQLRRQGSFSEDS [L7G] | -0.159 |
| LQLRRQSSFSEDS [L7S] | -0.223 |
| LQLRRQLGFSEDS [S8G] | 0.254 |
| LQLRRQESFSEDS [L7E] | 0.354 |
| LQLRRQLSWSEDS [F9W] | 0.0269 |
| LQLSRQLSFSEDS [R4S] | 0.382 |
| LQLERQLSFSEDS [R4E] | -0.422 |
| LQLRRQLSNSEDS [F9N] | -0.0682 |
| LQLRRQLSSSEDS [F9S] | -0.255 |
| LQLRFQLSFSEDS [R5F] | 0.111 |
| LQYRRQLSFSEDS [L3Y] | 0.783 |
| LQDRRQLSFSEDS [L3D] | 0.0338 |
| LQLRRQLSFPEDS [S10P] | 0.364 |
| LFLRRQLSFSEDS [Q2F] | 0.625 |
| LQLRHQLSFSEDS [R5H] | 0.0428 |
| LQLRRQLSFMEDS [S10M] | 0.593 |
| LQNRRQLSFSEDS [L3N] | 0.0326 |
| LQLRRQLSFSEIS [D12I] | 0.892 |

Series 5
Target: ABI1, truncated, D143A, DHFR fusion (Arabidopsis thaliana)
Technique: DHFR PCA, deep sequencing
Sample: yeast
Setting: methotrexate growth selection, single substitutions
With: (+)-ABA 710 µM
Baseline: wild-type fitted maximum
Direction: higher = stronger binding
Starting sequence: PYL1, truncated, DHFR fusion (Arabidopsis thaliana); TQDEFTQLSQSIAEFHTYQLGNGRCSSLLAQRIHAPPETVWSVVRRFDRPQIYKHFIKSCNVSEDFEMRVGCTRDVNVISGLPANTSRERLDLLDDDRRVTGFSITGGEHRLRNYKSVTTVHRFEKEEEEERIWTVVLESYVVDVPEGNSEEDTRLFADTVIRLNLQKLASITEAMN
| Variant | relative binding score [%] |
| --- | --- |
| H34G | 101 |
| A35H | 36 |
| R163L | 74.1 |
| S26L | 69.3 |
| V143E | -8.72 |
| F124N | 98.5 |
| H16E | 9.32 |
| L29N | 102 |
| P36H | 99.5 |
| L164R | 102 |
| A35F | 29.6 |
| L138R | 35.5 |
| K58G | 94.1 |
| A84F | 44.7 |
| A84Y | 62 |
| S80G | 76.8 |
| G81P | 64.5 |
| G23C | 93.3 |
| L20V | 108 |
| V161D | 8.01 |
| I12N | 69.2 |
| W134M | 111 |
| G148S | 92.9 |
| R45G | 75.4 |
| Y18W | 100 |
